Published values of several laboratories.
Compare with care: the assays were run in different laboratories. ± marks the error that the study gave.
UniProt Q12809, sequence (whole entry, looked up): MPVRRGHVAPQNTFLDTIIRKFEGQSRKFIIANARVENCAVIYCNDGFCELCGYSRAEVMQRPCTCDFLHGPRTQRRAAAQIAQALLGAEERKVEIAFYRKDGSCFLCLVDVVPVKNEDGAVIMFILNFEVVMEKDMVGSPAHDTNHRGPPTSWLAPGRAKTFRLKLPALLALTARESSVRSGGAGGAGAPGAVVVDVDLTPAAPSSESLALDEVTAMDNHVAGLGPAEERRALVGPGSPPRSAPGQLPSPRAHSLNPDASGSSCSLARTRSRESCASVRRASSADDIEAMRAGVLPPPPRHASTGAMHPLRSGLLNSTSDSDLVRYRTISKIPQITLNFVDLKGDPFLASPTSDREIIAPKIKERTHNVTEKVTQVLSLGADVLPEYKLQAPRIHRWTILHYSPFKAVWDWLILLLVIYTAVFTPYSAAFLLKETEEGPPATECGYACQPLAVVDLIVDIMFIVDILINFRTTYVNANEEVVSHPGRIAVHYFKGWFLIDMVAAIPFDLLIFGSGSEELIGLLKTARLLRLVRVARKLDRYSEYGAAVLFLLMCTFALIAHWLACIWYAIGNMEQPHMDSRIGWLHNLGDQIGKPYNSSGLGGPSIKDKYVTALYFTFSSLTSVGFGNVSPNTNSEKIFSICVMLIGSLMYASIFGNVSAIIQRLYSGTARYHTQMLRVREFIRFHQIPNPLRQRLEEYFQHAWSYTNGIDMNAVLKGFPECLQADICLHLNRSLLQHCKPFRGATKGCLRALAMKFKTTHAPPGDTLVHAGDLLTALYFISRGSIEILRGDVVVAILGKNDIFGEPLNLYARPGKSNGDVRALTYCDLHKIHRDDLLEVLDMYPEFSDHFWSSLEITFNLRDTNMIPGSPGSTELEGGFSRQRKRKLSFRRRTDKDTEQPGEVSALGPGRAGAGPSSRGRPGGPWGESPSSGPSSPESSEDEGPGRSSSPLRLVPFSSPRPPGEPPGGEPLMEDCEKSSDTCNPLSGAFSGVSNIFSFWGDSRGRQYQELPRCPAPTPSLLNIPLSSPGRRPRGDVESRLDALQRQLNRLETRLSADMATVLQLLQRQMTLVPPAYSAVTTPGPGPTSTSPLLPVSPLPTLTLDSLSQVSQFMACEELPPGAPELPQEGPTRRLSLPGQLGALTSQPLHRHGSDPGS
UniProt P08684, sequence (whole entry, looked up): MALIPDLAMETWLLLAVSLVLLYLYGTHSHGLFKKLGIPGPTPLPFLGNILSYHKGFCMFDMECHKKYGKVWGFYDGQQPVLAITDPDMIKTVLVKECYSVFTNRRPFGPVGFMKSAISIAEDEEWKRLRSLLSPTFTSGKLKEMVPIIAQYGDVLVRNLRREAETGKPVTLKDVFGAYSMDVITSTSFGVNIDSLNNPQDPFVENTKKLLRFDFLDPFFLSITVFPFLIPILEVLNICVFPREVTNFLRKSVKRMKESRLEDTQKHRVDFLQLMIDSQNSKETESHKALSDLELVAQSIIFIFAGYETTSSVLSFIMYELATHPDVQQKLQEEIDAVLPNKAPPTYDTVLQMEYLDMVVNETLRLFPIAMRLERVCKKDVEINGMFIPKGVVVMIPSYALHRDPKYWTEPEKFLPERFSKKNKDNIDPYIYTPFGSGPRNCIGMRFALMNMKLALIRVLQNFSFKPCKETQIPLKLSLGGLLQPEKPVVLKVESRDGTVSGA
UniProt P08183, sequence (whole entry, looked up): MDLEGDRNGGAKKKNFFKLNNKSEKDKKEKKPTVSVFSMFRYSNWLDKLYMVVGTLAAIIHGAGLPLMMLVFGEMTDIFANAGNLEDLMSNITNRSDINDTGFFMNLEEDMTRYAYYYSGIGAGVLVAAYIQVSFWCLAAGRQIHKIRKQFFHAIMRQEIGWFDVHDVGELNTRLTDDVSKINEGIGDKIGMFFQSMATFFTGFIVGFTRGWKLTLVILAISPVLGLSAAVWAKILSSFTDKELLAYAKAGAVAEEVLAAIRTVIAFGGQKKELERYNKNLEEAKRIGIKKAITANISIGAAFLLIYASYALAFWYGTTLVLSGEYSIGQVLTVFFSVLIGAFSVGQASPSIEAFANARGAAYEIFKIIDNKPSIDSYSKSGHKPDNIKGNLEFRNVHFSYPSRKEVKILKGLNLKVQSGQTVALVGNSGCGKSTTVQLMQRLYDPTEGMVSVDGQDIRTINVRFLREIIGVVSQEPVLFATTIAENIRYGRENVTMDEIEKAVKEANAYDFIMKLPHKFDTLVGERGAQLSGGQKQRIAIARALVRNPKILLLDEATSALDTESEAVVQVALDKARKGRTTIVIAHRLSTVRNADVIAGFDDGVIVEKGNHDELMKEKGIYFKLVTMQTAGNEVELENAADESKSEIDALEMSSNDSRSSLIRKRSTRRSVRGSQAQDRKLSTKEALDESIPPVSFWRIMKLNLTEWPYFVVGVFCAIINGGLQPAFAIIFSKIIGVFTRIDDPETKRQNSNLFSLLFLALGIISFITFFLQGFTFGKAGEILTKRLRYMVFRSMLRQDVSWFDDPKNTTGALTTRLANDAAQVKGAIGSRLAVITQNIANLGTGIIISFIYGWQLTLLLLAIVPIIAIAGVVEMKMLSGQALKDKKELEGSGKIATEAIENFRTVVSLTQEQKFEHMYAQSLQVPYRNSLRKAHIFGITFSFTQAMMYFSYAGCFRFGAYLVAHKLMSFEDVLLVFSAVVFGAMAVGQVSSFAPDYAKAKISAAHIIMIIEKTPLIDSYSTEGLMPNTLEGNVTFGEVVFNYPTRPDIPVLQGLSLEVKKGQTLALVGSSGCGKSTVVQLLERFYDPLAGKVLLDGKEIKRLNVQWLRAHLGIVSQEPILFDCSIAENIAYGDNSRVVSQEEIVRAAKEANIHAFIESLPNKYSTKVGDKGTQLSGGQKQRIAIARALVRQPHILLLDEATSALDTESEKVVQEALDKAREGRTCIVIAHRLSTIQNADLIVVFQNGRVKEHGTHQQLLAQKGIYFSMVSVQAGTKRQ

Structure (SMILES)	target or system	test	system	setting	how to read	quantity	result
COc1cc2c(Oc3ccc4[nH]c(C)cc4c3F)ccnc2cc1OCC1(N)CC1			paediatric refractory sarcoma patients	12 mg		sinus arrhythmia incidence	0%
CC[C@H](C)[C@H](NC(=O)[C@H](C)NC(=O)[C@H](CCCCN)NC(=O)[C@H](CCCCN)NC(=O)[C@H](CCCCN)NC(=O)[C@H](CCCCN)NC(=O)[C@H](CCCCN)NC(=O)[C@@H](N)CCCCN)C(=O)N[C@@H](CO)C(=O)NCC(=O)N[C@@H](CO)C(=O)N[C@@H](CC(C)C)C(=O)N[C@H](C(=O)N[C@H](C(=O)N[C@@H](CC(C)C)C(=O)N[C@@H](Cc1ccccc1)C(=O)NCC(=O)N[C@@H](Cc1ccc(O)cc1)C(N)=O)[C@@H](C)O)C(C)C	human erythrocytes			400 µM, 1 h	reference: Triton X-100	hemolysis	23%
CCC1(c2ccccc2)C(=O)NC(=O)NC1=O	primary human hepatocytes	inducer		1000 µM, unit not given	reference: vehicle	CYP2B6 mRNA induction	5.48
COc1cccc(-c2n[nH]c(SCc3ccccn3)n2)c1OC	Salmonella typhimurium	Ames test, plate incorporation	TA1535	0.25 mg/plate, with rat liver S9		revertant colonies per plate	16
CO[C@H]1C[C@@H]2CC[C@@H](C)[C@@](O)(O2)C(=O)C(=O)N2CCCC[C@H]2C(=O)O[C@H]([C@H](C)C[C@@H]2CC[C@@H](OC(=O)NCCOCCOCCOCCOCCOCCOCCOCCOCCC(=O)N3CCc4cc(Cn5nc(-c6ccc7oc(N)nc7c6)c6c(N)ncnc65)ccc4C3)[C@H](OC)C2)C[C@@H](O)[C@H](C)/C=C(\C)[C@@H](O)[C@@H](OC)C(=O)[C@H](C)C[C@H](C)/C=C/C=C/C=C/1C			patients with advanced solid tumours	intravenous, 8 mg weekly, any grade		AE leading to discontinuation	12.5%
Cc1ncc2n1-c1ccc(Cl)cc1C(c1ccccc1F)=NC2			wild-type mouse, plasma	intravenous, 0.3 mg/kg, 14-day CMC pretreatment		AUC(0-90 min)	0.148 ± 0.0392 µM·h
CC(C)C[C@H](NC(=O)[C@H](CO)NC(=O)CNC(=O)[C@H](CCCNC(=N)N)NC(=O)[C@H](CCCNC(=N)N)NC(=O)[C@@H](N)CCCNC(=N)N)C(=O)N[C@H](C(=O)N[C@H](C(=O)N[C@@H](CCCNC(=N)N)C(=O)N[C@@H](CCCNC(=N)N)C(=O)N[C@@H](CCCNC(=N)N)C(=O)N[C@@H](Cc1ccc(O)cc1)C(N)=O)[C@@H](C)O)C(C)C	human erythrocytes			400 µM, 1 h	reference: Triton X-100	hemolysis	2%
CN[C@@]1(c2ccccc2Cl)CCCCC1=O	Voltage-gated inwardly rectifying potassium channel KCNH2 (KCNH2, Homo sapiens, UniProt Q12809)	radioligand binding, radioligand displacement		30 µM		inhibition	11%
CC(C)CC(=O)OC[C@H]1O[C@@](C#N)(c2ccc3c(N)ncnn23)[C@H](O)[C@@H]1O	ATP-dependent translocase ABCB1 (ABCB1, Homo sapiens, UniProt P08183)		Caco-2 monolayer	0.9 µM, 2 h, basolateral to apical, with: zosuquidar 25 µM		recovery	76.5%
CN1CC[C@@H](c2c(O)cc(O)c3c(=O)cc(-c4ccc(C(F)(F)F)cc4Cl)oc23)[C@@H]1CO		refers to: Hypotension	relapsed or refractory haematological malignancies	oral, dose not given, grade 3 to 4		adverse event incidence	7.5%
CCCCCC(=O)N[C@@H](CCCNC(=N)N)C(=O)N[C@@H](CCCNC(=N)N)C(=O)N[C@@H](CCCNC(=N)N)C(=O)N[C@@H](CCCNC(=N)N)C(=O)N[C@H](C(=O)N[C@@H](CC(C)C)C(=O)N[C@H](C(=O)N[C@@H](CCCCN)C(=O)N[C@@H](CCCCN)C(=O)N[C@H](C(=O)N[C@@H](CC(C)C)C(=O)N[C@@H](CCCCN)C(=O)N[C@@H](CC(C)C)C(=O)N[C@@H](CCCCN)C(=O)N[C@@H](CO)C(=O)N[C@@H](CO)C(=O)N[C@@H](C)C(=O)N[C@@H](Cc1ccc(O)cc1)C(N)=O)C(C)C)[C@@H](C)CC)[C@@H](C)CC	human erythrocytes			400 µM, 1 h	reference: Triton X-100	hemolysis	3%
O=C1Nc2cc3[nH]nc(-c4ccncc4)c3cc2CN1Cc1ccccc1		refers to: back pain	patients with advanced solid tumours	intravenous, dose not given, both schedules pooled		patients with TEAE	24%
CC[C@H](C)[C@H](NC(=O)[C@H](CCCNC(=N)N)NC(=O)[C@H](CCCNC(=N)N)NC(=O)[C@H](CCCNC(=N)N)NC(=O)[C@H](CCCNC(=N)N)NC(=O)[C@H](CCCNC(=N)N)NC(=O)[C@@H](N)CCCNC(=N)N)C(=O)N[C@@H](CO)C(=O)N[C@@H](Cc1ccccc1)C(=O)N[C@@H](CC(C)C)C(=O)NCC(=O)N[C@@H](CO)C(=O)N[C@@H](CCCCN)C(=O)N[C@@H](CCCCN)C(=O)N[C@@H](CCCCN)C(=O)N[C@@H](CCCCN)C(=O)N[C@@H](CC(C)C)C(=O)N[C@@H](CC(C)C)C(=O)N[C@@H](CCCCN)C(=O)N[C@@H](CCCNC(=N)N)C(N)=O	human erythrocytes			400 µM, 1 h	reference: Triton X-100	hemolysis	3%
CCN(CC)C(=O)[C@@H]1C=C2c3cccc4[nH]cc(c34)C[C@H]2N(C)C1		refers to: impaired balance	healthy volunteers	dose not given, 12 to 24 h	reference: placebo, direction not given	List of Complaints score	2
Cc1ncc2n1-c1ccc(Cl)cc1C(c1ccccc1F)=NC2	Cytochrome P450 3A4 (CYP3A4, Homo sapiens, UniProt P08684)		human, plasma	oral, 2 mg, day 1, alone, geometric mean		Cmax	7.51 ng/mL
O=c1ccc2ccccc2o1	NHEK	ER stress, refers to: ATF4		concentration not given, 1 h		chance response	0.09%
Cc1cc(C(=O)NC(C)(C)COc2cccc3c2C(N)=NS(=O)(=O)N3)cc(C)n1	Salmonella typhimurium	Ames test, initial	TA1537	150 µg/plate, with: rat liver S9	reference: solvent control	revertant ratio	1.3
O=[N+]([O-])c1ccc(N2CCN(CCC(O)c3ccc(F)cc3)CC2)c(C(F)(F)F)c1 (stereo not shown)	Salmonella typhimurium	genotoxicity, SOS/umu test	TA1535/pSK1002	0.008 mg/mL, 4 h, with S9, lower range		induction factor	0.7
OCc1ncc2n1-c1ccc(Cl)cc1C(c1ccccc1F)=NC2			human, plasma	7.5 mg midazolam, day 12, geometric mean, with: amenamevir 400 mg		AUC(0-inf)	39.9 ng·h/mL

Repeated from above:
Structure (SMILES)	target or system	test	system	setting	how to read	quantity	result
CN1CC[C@@H](c2c(O)cc(O)c3c(=O)cc(-c4ccc(C(F)(F)F)cc4Cl)oc23)[C@@H]1CO		refers to: Hypotension	relapsed or refractory haematological malignancies	oral, dose not given, grade 3 to 4		adverse event incidence	7.5%
CCCCCC(=O)N[C@@H](CCCNC(=N)N)C(=O)N[C@@H](CCCNC(=N)N)C(=O)N[C@@H](CCCNC(=N)N)C(=O)N[C@@H](CCCNC(=N)N)C(=O)N[C@H](C(=O)N[C@@H](CC(C)C)C(=O)N[C@H](C(=O)N[C@@H](CCCCN)C(=O)N[C@@H](CCCCN)C(=O)N[C@H](C(=O)N[C@@H](CC(C)C)C(=O)N[C@@H](CCCCN)C(=O)N[C@@H](CC(C)C)C(=O)N[C@@H](CCCCN)C(=O)N[C@@H](CO)C(=O)N[C@@H](CO)C(=O)N[C@@H](C)C(=O)N[C@@H](Cc1ccc(O)cc1)C(N)=O)C(C)C)[C@@H](C)CC)[C@@H](C)CC	human erythrocytes			400 µM, 1 h	reference: Triton X-100	hemolysis	3%
